# Measurements collected from several papers.
# ± gives the spread as reported.
Structure (SMILES),assay,test system,conditions,scale,measurement,result
O=C([O-])CN1CCN(CC(=O)[O-])CCN(CC(=O)NC[C@H]2CC[C@H](C(=O)N[C@H](Cc3cnc4ccccc4c3)C(=O)NCCCC[C@H](NC(=O)N[C@@H](CCC(=O)O)C(=O)O)C(=O)O)CC2)CCN(CC(=O)[O-])CC1.[64Cu+2],PET/CT,"patients suspected prostate cancer, primary tumours",2 h post-injection,,mean SUVmax,22.9 ± 14.9
N#Cc1cccc(-c2ccc(=O)n(Cc3cccc(-c4ncc(OCC5CCN(CC(=O)NCCOCCNc6ccc7c(c6)C(=O)N(C6CCC(=O)NC6=O)C7=O)CC5)cn4)c3)n2)c1 (stereo not drawn),immunohistochemistry,"BALB/c nude mice, Hs746T xenograft","oral, 40 mg/kg",,c-MET level,inhibited
Cc1sc(-c2ccc(C(F)(F)F)cc2)nc1-c1nn[nH]c1C#N,,male ZDF rat,"oral, 2 mg/kg/day, 1008 h",reference: vehicle,HbA1c reduction,0.45 percentage points
CC[C@H](C)[C@H](NC(=O)[C@H](Cc1ccccc1)NC(=O)[C@H](CCC(=O)O)NC(=O)[C@H](CCCCN)NC(=O)[C@H](C)NC(=O)[C@H](C)NC(=O)[C@H](CCC(N)=O)NC(=O)CNC(=O)[C@H](CCC(=O)O)NC(=O)[C@H](CC(C)C)NC(=O)[C@H](Cc1ccc(O)cc1)NC(=O)[C@H](CO)NC(=O)[C@H](CO)NC(=O)[C@@H](NC(=O)[C@H](CC(=O)O)NC(=O)[C@H](CO)NC(=O)[C@@H](NC(=O)[C@H](Cc1ccccc1)NC(=O)[C@@H](NC(=O)CNC(=O)[C@H](CCC(=O)O)NC(=O)[C@H](C)NC(=O)[C@@H](N)Cc1c[nH]cn1)[C@@H](C)O)[C@@H](C)O)C(C)C)C(=O)N[C@@H](C)C(=O)N[C@@H](Cc1c[nH]c2ccccc12)C(=O)N[C@@H](CC(C)C)C(=O)N[C@H](C(=O)N[C@@H](CCCCN)C(=O)NCC(=O)N[C@@H](CCCNC(=N)N)C(N)=O)C(C)C,agonist,mouse pancreatic islets,"90 nM, 45 min, added: 16 mM glucose",reference: high glucose alone,insulin secretion,~2 fold
N[C@@H](CO)C(=O)N1CCC[C@H]1C(=O)NCC(=O)NCC(=O)O,"diketopiperazine formation, Arrhenius plot, ESI-MS",1-propanol,"70, 80, 90 °C, 0.5% acetic acid",,ΔG‡ at 298.15 K,22.2 ± 1.2 kcal/mol
CC=C1C(OC2OC(CO)C(O)C(O)C2O)OC=C(C(=O)OC)C1CC(=O)OCC1OC(OCCc2ccc(O)cc2)C(O)C(O)C1O (stereo not drawn),,"BALB/c mouse, orthotopic colon 26 tumour","oral, 109.2 mg/kg daily, 10 days",reference: untreated tumour group,spleen weight decrease,26.6%
O=C(NCCCCc1ccccc1)n1c(=O)oc2cc(-c3ccc(F)cc3)ccc21,,"mouse, lung","intraperitoneal, 10 mg/kg, 3 h",,lung sphingosine level,decreased
CCCCC1NC(=O)c2ccccc21 (racemic),,"rat cerebral ischaemia-reperfusion, cerebral cortex","50 mg/kg, 24 h after reperfusion",,MDA content,2.23 nmol/mg
Brc1ccc(Nc2nc(NN=Cc3c[nH]c4ccccc34)nc(N3CCOCC3)n2)cc1,"Western blot, item: EGFR and AKT","mouse A549 xenograft, tumour","ip, 70 mg/kg single",,protein level,inhibited
C[C@@H](O)[C@H](N)C(=O)N1CCC[C@H]1C(=O)NCC(=O)NCC(=O)O,"diketopiperazine formation, Arrhenius plot, ESI-MS",1-propanol,"70, 80, 90 °C, 0.5% acetic acid",,ΔG‡ at 298.15 K,22.2 ± 1.91 kcal/mol
CC(=O)[O-].Nc1ccc(C([O-])=NN=Cc2ccc(OCC(=O)Nc3ccc(Cl)cc3)cc2)cc1.O.O.O.[Ni+2],"ABTS radical scavenging, ABTS",,"concentration not given, 6 min",,inhibition,69.5%
CCCCCCCOC(=O)Cc1c(C)n(C(=O)c2ccc(Cl)cc2)c2ccc(OC)cc12,hot plate test,BALB/c mice,"50 mg/kg, 90 min",,latency of nociceptive response,15.4 ± 0.83 s
Cc1cc(N)c2ccccc2[n+]1CCCCCCCCCCCCCC[n+]1c(C)cc(N)c2ccccc21,,"NOD/SCID mice, NB12 xenograft, dissociated tumour cells","dose not given, 10 days",,sphere-forming cells,decreased
CC[C@@H](C)N([11CH3])C(=O)c1nc(-c2ccccc2Cl)c2ccccc2n1,"binding, PET","rhesus monkey, cerebellum",dose not given,reference: baseline minus preblock VT,specific volume of distribution,9.3 mL/cm³
COc1cc(/C=C/C(O)=C/C(=O)/C=C/c2ccc(O[C@@H]3O[C@H](C(=O)O)[C@@H](O)[C@H](O)[C@H]3O)c(OC)c2)ccc1O,immunohistochemistry,"HCT-116 (KRAS mutant, TP53 null), mouse xenograft, tumour","ip, 90 mg/kg, day 21, not statistically significant",reference: control mice,IκB staining,increased
O=C(O)CNC(=O)CNC(=O)[C@@H]1CCCN1C(=O)[C@@H]1CCCN1,"diketopiperazine formation, Arrhenius plot, ESI-MS",1-propanol,"70, 80, 90 °C, 0.5% acetic acid",,ΔG‡ at 298.15 K,22.7 ± 0.239 kcal/mol
COc1ccc2c(c1)c(CC(=O)OCC(=O)c1ccccc1)c(C)n2C(=O)c1ccc(Cl)cc1,hot plate test,BALB/c mice,"50 mg/kg, 60 min",,latency of nociceptive response,14.1 ± 1 s
CC(C)(C)ONc1nc(Nc2ccnc(C(F)(F)F)c2)nc(-c2cccc(C(F)(F)F)n2)n1,item: 2-hydroxyglutarate,"mouse U-87 MG IDH2 R140Q xenograft, tumour","oral, 54.14 mg/kg, up to 0.5 h",,2-HG level,34 ng/mg
CC[C@H]1[C@@H](O)[C@@H]2[C@H](CC[C@]3(C)[C@@H]([C@H](C)CCOS(=O)(=O)[O-])CC[C@@H]23)[C@@]2(C)CC[C@@H](O)C[C@@H]12.[Na+],EchoMRI,ob/ob NASH mouse model,"oral, 10 mg/kg once daily, 8 weeks",reference: body weight,whole-body fat mass,37.5 ± 0.7%
CC[C@H](C)[C@H](NC(=O)[C@H](CCCCN)NC(=O)[C@H](CC(N)=O)NC(=O)CNC(=O)[C@@H](NC(=O)[C@H](C)NC(=O)[C@H](CCCNC(=N)N)NC(=O)[C@H](CC(C)C)NC(=O)[C@H](CCCCN)NC(=O)[C@H](CCCCN)NC(=O)[C@H](CCCCN)NC(=O)[C@H](C)NC(=O)[C@H](CCCCN)NC(=O)[C@@H]1CSSC[C@H](NC(=O)[C@H](CCCNC(=N)N)NC(=O)CN)C(=O)N[C@@H](CC(N)=O)C(=O)N[C@@H](CC(C)C)C(=O)N[C@@H](CC(C)C)C(=O)N1)C(C)C)C(=O)N[C@@H](CCCCN)C(=O)N[C@@H](CCC(=O)O)C(=O)N[C@H](C(=O)N[C@@H](CCCCN)C(=O)N[C@@H](CC(N)=O)C(=O)N[C@H](C(=O)N[C@H](C(=O)N[C@@H](Cc1ccccc1)C(=O)N[C@@H](CC(N)=O)C(=O)N[C@@H](CCCNC(=N)N)C(=O)O)C(C)C)C(C)C)[C@@H](C)CC,item: IL-1β,"BALB/c mice, CLP-induced sepsis, serum and lung","intraperitoneal, 5 mg/kg, 12 h post-surgery",reference: vehicle,cytokine level,decreased
Cc1cc2c(cc1O)C=C1C=CC(=O)C(C)(C)[C@H]1CC2,,mouse AOM/DSS colitis-associated cancer,50 mg/kg,,small intestine adenomas per mouse,4.2
CC(=O)[O-].O.O.O.O.[Co+2].[O-]c1ccc(Br)cc1C=NCCN1CCOCC1,DPPH radical scavenging,,240 µM,,inhibition,70.1%
CCCCC[C@H](O)/C=C/[C@@H]1[C@@H](C/C=C\CCCC(=O)O)[C@H]2CO[C@@H]1C2,"platelet aggregation, agonist, light transmission aggregometry",human platelet-rich plasma,,,Emax,84.1 ± 2.7%
CC1=C(C2=C(C)C(=O)c3c(cc(O)c(O)c3Cc3ccccc3)C2=O)C(=O)c2cc(O)c(O)c(Cc3ccccc3)c2C1=O (racemic),,B6 Bcl-2-transgenic mouse,"intraperitoneal, 5 µmol/kg, maximal reduction",reference: control,spleen weight reduction,45 ± 7%
C[C@H](NC(=O)COC(=O)[C@H](C)NC(=O)CO)C(=O)O,,water,"pH 5, 50 °C",,depolymerization rate constant,0.238 h⁻¹
COc1cccc(OCCN2CCC[C@H](CN3CCc4cc(OC)c(OC)cc4CC3=O)C2)c1,,"VTA dopamine neurons, stress-naive female mice","intraperitoneal, 1 mg/kg",reference: baseline,firing rate,no effect
C=C1C[C@@]23CC[C@H]4[C@@](C)(CCC[C@@]4(C)C(=O)O[C@@H]4O[C@H](CO)[C@@H](O)[C@H](O)[C@H]4O)[C@@H]2CC[C@]1(O[C@@H]1O[C@H](CO[C@H]2O[C@H](CO)[C@@H](O)[C@H](O)[C@H]2O)[C@@H](O)[C@H](O)[C@H]1O[C@@H]1O[C@H](CO)[C@@H](O)[C@H](O)[C@H]1O)C3,"immunoblot, item: phospho-perilipin","C57BL/6N mouse, high-fat diet, gonadal white adipose tissue","drinking water, 0.2 g/L, 16 weeks",reference: vehicle,protein level,decreased
CCOc1c(C(C)(C)O)sc2cnc(Nc3ccc(N4CCC(N5CC6(COC6)C5)CC4)cc3OC)nc12,,"C57BL/6J mouse, TAC heart failure","oral, 30 mg/kg/day, 3 weeks after TAC, 7 days dosing",,lung weight to tibia length,decreased
COc1c2c(cc3oc(COC4OC(CO)C(O)C(O)C4O)cc(=O)c13)OC(C(C)(C)O)C2 (stereo not drawn),analgesia,mouse,"oral, 4 mg/kg, 2 h",,hot plate latency,12.4 ± 1.31 s
COc1cc2c(cc1OC)-c1cc3ccc(OC)c(OC)c3c[n+]1CC2,,"rat, STZ-induced diabetic, serum","oral, 12 mg/kg, day 28",,ALT activity,86.9 ± 2.87 U/L
COc1c2c(cc3oc(CO)cc(=O)c13)O[C@H](C(C)(C)O)C2,analgesia,mouse,"oral, 2 mg/kg, 1 h",,hot plate latency,14 ± 1.75 s
CC(=O)N[C@@H](CC(N)=O)C(=O)NCC(=O)N[C@@H](CCCNC(=N)N)C(=O)N[C@@H](C)C(N)=O,1H NMR,sodium phosphate buffer 50 mM,"pH 7.4, 28 °C",,rate constant succinimide to β-Asp,0.107 h⁻¹
Cc1ncsc1-c1ccc(C(CO)NC(=O)C2CC(O)CN2C(=O)C(C(C)C)n2cc(-c3ccc(COc4c(-c5c(C)c(F)cc6[nH]ncc56)c(C5CC5)cc5c(N6CC7CC6CN7)nc(OC6CCOCC6)nc45)cc3)nn2)cc1 (stereo not drawn),"immunoblot, item: p-ERK and DUSP4","mouse PK-59 xenograft, tumour","intravenous, single dose, NG, 24 h",,protein level,decreased
CC(=O)N[C@@H](CCCNC(=N)N)C(=O)NCCOCCOCC(=O)N[C@H](C)C(=O)N1CCC[C@H]1B(O)O,plasma clot lysis,normal human plasma,"50 µM, 72 h, 29 °C, at total lysis, added: uPA",,reduction of clot lysis time,17%
COc1ccc(C2CC(c3ccc(C)cc3)=Nc3ccccc3S2)cc1OC (stereo not drawn),,"Wistar rat, STZ-induced diabetes, serum","20 mg/kg, 28 days",,ALT (SGPT),20.1 ± 2.12 IU/L
CC(C)(O)c1ccc(N2Cc3c(ccnc3-c3ccc(F)cc3OCC(F)(F)F)C2=O)cc1,,"Gaucher disease mouse model, plasma","30 mg/kg, single dose",reference: vehicle,glucosylceramide level,79 ± 3%

# Repeated from above:
Structure (SMILES),assay,test system,conditions,scale,measurement,result
Cc1sc(-c2ccc(C(F)(F)F)cc2)nc1-c1nn[nH]c1C#N,,male ZDF rat,"oral, 2 mg/kg/day, 1008 h",reference: vehicle,HbA1c reduction,0.45 percentage points
CCOc1c(C(C)(C)O)sc2cnc(Nc3ccc(N4CCC(N5CC6(COC6)C5)CC4)cc3OC)nc12,,"C57BL/6J mouse, TAC heart failure","oral, 30 mg/kg/day, 3 weeks after TAC, 7 days dosing",,lung weight to tibia length,decreased
N[C@@H](CO)C(=O)N1CCC[C@H]1C(=O)NCC(=O)NCC(=O)O,"diketopiperazine formation, Arrhenius plot, ESI-MS",1-propanol,"70, 80, 90 °C, 0.5% acetic acid",,ΔG‡ at 298.15 K,22.2 ± 1.2 kcal/mol
COc1cccc(OCCN2CCC[C@H](CN3CCc4cc(OC)c(OC)cc4CC3=O)C2)c1,,"VTA dopamine neurons, stress-naive female mice","intraperitoneal, 1 mg/kg",reference: baseline,firing rate,no effect
